Measured values collected from several papers.
Numbered parts are unrelated; each lists some results of a single study. Positions count from the first letter of the parent shown.
Chain of UniProt P11802 (whole entry, looked up): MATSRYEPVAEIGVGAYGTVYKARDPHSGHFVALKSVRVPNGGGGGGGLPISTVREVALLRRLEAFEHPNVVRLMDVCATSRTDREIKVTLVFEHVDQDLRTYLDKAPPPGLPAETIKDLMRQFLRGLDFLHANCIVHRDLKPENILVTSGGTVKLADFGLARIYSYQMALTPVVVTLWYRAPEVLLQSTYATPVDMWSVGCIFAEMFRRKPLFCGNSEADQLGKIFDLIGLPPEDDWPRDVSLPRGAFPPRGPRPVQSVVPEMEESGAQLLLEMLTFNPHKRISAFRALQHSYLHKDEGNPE
Chain of UniProt P42336 (whole entry, unmodified, looked up): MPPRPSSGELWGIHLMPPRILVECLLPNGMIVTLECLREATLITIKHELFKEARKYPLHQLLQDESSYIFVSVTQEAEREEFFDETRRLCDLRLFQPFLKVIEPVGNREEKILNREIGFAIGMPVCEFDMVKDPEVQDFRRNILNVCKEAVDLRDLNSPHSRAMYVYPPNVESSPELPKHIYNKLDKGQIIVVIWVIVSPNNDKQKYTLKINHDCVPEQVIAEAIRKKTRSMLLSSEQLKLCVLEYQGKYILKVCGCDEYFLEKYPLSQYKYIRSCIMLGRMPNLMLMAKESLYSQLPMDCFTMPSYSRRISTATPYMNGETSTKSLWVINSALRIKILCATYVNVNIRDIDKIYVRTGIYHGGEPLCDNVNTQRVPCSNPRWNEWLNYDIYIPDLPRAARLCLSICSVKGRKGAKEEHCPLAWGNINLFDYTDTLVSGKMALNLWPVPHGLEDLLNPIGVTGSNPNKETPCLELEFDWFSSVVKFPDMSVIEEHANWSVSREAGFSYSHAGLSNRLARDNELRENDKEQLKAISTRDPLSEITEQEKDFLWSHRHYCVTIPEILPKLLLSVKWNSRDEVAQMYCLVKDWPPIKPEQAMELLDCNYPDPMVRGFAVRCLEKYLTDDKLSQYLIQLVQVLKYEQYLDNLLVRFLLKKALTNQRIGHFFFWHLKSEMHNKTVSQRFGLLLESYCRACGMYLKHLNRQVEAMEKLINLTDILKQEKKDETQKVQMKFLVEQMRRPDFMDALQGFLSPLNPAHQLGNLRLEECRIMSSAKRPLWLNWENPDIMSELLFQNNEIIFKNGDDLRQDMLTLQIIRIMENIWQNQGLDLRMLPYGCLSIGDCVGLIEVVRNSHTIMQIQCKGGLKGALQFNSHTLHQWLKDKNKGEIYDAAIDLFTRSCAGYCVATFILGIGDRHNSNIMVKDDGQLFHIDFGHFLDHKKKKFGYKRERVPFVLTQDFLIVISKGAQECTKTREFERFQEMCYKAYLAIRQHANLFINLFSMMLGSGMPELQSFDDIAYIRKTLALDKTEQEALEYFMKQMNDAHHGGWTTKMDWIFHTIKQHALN
Chain of UniProt Q13177 (whole entry, looked up): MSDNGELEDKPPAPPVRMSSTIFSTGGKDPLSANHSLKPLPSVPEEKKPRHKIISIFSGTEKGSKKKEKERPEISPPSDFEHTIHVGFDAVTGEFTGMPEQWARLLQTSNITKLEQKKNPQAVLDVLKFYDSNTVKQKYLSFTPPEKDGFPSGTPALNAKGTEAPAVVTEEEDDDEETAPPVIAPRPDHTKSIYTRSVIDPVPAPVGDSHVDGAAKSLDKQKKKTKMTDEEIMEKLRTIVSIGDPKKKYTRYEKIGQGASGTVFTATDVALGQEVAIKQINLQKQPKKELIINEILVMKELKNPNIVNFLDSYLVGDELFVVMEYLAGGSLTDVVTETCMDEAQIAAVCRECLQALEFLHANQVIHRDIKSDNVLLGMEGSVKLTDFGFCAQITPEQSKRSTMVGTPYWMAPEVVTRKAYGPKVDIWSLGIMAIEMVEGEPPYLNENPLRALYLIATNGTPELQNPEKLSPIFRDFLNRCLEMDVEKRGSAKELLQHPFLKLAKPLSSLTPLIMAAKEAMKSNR
Chain of UniProt P07949 (whole entry, unmodified, looked up): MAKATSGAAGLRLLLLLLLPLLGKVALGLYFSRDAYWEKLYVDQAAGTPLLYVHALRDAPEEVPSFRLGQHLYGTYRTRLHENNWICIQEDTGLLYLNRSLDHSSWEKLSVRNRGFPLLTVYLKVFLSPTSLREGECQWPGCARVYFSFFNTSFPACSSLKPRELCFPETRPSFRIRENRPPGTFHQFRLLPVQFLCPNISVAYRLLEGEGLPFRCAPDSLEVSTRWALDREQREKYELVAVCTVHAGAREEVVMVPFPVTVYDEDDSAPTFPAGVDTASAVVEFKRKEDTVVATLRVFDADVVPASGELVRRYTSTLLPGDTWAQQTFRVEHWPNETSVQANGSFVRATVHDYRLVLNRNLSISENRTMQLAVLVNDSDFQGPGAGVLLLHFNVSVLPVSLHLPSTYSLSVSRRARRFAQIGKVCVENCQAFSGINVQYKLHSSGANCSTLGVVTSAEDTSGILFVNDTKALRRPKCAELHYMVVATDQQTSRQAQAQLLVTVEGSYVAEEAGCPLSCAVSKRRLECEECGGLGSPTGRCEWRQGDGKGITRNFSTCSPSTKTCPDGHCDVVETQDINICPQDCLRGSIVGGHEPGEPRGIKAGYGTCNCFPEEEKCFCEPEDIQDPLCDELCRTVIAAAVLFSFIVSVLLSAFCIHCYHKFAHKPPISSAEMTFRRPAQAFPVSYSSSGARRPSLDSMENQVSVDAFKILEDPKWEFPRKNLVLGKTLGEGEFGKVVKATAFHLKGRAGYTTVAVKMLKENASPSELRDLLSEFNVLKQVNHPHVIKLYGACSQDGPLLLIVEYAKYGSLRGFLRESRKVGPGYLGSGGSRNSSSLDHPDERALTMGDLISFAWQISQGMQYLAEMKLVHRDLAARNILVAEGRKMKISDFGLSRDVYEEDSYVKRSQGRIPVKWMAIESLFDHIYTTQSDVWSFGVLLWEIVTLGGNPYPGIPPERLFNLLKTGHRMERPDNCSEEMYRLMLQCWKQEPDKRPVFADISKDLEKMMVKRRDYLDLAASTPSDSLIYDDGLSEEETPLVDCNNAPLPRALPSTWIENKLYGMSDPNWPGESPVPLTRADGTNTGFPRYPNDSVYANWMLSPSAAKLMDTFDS
Chain of UniProt Q8IU85 (whole entry, looked up): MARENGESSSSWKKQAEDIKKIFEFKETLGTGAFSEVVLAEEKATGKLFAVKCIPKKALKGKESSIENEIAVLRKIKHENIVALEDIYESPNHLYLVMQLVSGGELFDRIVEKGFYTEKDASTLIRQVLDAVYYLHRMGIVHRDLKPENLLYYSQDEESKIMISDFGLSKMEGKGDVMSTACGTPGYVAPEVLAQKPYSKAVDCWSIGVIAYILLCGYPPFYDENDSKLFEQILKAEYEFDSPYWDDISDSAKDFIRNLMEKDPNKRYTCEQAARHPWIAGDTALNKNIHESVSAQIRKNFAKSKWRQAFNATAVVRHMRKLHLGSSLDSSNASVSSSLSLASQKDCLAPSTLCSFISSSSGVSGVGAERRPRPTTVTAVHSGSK
Chain of UniProt P06239 (whole entry, looked up): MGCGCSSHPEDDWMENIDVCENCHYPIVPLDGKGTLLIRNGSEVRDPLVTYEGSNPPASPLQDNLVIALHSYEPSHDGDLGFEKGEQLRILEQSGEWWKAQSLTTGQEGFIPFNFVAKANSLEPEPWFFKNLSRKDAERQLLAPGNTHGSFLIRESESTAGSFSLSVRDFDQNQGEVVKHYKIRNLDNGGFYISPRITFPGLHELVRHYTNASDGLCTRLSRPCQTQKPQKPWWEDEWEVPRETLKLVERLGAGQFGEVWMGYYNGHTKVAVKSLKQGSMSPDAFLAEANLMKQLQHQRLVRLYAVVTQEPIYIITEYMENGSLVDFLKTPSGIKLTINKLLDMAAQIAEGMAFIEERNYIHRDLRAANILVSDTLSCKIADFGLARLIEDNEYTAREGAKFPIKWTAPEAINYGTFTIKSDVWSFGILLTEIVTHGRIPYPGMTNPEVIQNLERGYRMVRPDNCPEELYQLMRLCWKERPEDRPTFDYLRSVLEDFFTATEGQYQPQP
Chain of UniProt Q13882 (whole entry, looked up): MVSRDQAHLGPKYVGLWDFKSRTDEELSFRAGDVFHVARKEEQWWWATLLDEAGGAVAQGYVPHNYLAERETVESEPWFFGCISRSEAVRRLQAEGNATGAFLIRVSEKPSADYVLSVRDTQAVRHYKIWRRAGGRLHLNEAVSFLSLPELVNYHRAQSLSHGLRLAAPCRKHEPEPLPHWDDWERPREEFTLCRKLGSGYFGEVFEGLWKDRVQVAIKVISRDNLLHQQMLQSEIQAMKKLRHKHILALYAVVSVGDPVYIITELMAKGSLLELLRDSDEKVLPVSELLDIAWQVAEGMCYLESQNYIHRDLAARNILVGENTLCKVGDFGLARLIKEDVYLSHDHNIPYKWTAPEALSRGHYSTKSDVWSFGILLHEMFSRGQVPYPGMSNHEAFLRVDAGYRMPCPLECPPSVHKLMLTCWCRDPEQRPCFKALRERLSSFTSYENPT

Sample 1
SMILES: O=C(NCCCC1CCCCC1)c1ccc(CNC(=O)c2cnn(-c3ccccc3)c2C(F)(F)F)cc1
Read-out: cell-free assay
Technique: competition with immobilised ligand
Tested at: 0.1 µM
target	remaining binding [%]
PTK6 (Homo sapiens, UniProt Q13882)	97
MAPK13 (Homo sapiens, UniProt O15264)	100
CDK13 (Homo sapiens, UniProt Q14004)	100
ALK (Homo sapiens, UniProt Q9UM73, C1156Y)	100
PIK3CA (Homo sapiens, UniProt P42336, E545A)	100
FLT3 (Homo sapiens, UniProt P36888, D835H)	100
PIK3CA (Homo sapiens, UniProt P42336, H1047Y)	100
CDK4 (Homo sapiens, UniProt P11802)	96
LCK (Homo sapiens, UniProt P06239)	100
CDC42BPA (Homo sapiens, UniProt Q5VT25)	100
MAP2K1 (Homo sapiens, UniProt Q02750)	89
PAK2 (Homo sapiens, UniProt Q13177)	100
KIT (Homo sapiens, UniProt P10721, V559D)	100
EPHB1 (Homo sapiens, UniProt P54762)	89
WNK2 (Homo sapiens, UniProt Q9Y3S1)	100
CAMK1D (Homo sapiens, UniProt Q8IU85)	100
Cyclin-dependent kinase 4, with cyclin D1 (CDK4, Homo sapiens, UniProt P11802)	100
RET (Homo sapiens, UniProt P07949, V804L)	100

Sample 2
Target: ABI1, truncated, D143A, DHFR fusion (Arabidopsis thaliana)
Technique: DHFR PCA, deep sequencing
Medium: yeast
Notes: methotrexate growth selection, single substitutions
With: (+)-ABA 0 µM
Relative to: wild-type fitted maximum
Reading: higher = stronger binding
Parent: PYL1, truncated, DHFR fusion (Arabidopsis thaliana); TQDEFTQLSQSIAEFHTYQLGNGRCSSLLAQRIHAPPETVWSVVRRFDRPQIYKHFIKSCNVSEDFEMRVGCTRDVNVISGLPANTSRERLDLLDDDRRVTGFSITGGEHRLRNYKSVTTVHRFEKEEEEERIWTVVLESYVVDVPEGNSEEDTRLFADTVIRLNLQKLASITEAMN
Variant	relative binding score [%]
R113G	2.92
R113T	11.9
N85K	36.8
H34C	32.1
L82C	13.8
T86G	0.705
S42W	-7.38
V121P	-1.79

Sample 3
Target: OGT, full length, His-tagged (human)
Technique: phage display, sequencing
Medium: in vitro
Tested at: 1 µg OGT
Notes: single substitutions, 15-mer displayed peptide, unchanged parent 6.14
Relative to: input library
Reading: higher = stronger binding
Parent: peptide; VAYPNSYMPKYQIST
Variant	fold enrichment
VKYPNSYMPKYQIST [A2K]	0.253 fold
VAYPNSYMPKVQIST [Y11V]	2.16 fold
MAYPNSYMPKYQIST [V1M]	3.57 fold
VAYPNSAMPKYQIST [Y7A]	0.551 fold
VAYPNSYMPKYQISL [T15L]	11.8 fold
VAYPNSYMPKYQISY [T15Y]	13.9 fold
VARPNSYMPKYQIST [Y3R]	0.419 fold
VAYPNSYMPKYQISF [T15F]	8.74 fold

Sample 4
Target: Serine/threonine-protein kinase PLK1 (PLK1, Homo sapiens, UniProt P53350)
Chain of UniProt P53350 (whole entry, looked up): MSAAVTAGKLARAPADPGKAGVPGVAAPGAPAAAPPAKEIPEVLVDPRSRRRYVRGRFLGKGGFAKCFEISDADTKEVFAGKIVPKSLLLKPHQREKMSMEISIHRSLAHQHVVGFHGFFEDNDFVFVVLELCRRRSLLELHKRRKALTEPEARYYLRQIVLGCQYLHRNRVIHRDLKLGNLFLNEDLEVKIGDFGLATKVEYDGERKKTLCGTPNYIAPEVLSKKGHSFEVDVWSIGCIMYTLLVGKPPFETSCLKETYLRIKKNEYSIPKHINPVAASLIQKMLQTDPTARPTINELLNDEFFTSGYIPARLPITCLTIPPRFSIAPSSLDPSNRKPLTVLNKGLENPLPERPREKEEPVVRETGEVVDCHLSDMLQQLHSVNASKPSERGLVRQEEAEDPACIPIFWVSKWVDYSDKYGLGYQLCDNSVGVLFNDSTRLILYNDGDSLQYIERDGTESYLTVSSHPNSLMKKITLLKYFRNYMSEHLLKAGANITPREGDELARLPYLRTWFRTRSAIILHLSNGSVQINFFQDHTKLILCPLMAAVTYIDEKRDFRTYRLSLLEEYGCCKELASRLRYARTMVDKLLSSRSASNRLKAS
Read-out: enzyme activity
Mode: inhibitor
Tested at: 0.5 µM
Relative to: control
Compound	remaining activity [%]
CN(C)c1ccc(C=C2C(=O)Nc3ccccc32)cc1	103
COc1cc2nccc(Oc3ccc(NC(=S)NC(=O)c4ccccc4C)cc3)c2cc1OC	97.9
COc1cc2ncnc(Nc3ccc(F)c(Cl)c3)c2cc1OCCCN1CCOCC1	97
Cn1c2ccccc2c2c3c(c4c5ccccc5n(CCC#N)c4c21)CNC3=O	103
Cc1nc(-c2ccccc2)c(-c2ccncc2)o1	104
CC(C)[C@H](CO)Nc1nc(Nc2cc(N)cc(Cl)c2)c2ncn(C(C)C)c2n1	55
COc1ccc(OC)c2c(=S)c3ccccc3[nH]c12	93.6
O=C1NC(=O)C(c2cn(CCCn3ccnc3)c3ccccc23)=C1Nc1ccccc1	99.5
O=C(Nc1cccc(Nc2cc(Nc3cccc(C(F)(F)F)c3)ncn2)c1)C1CC1	98.6
N#CC(C#N)=C(N)/C(C#N)=C/c1ccc(O)cc1	60.8
O=C(O)c1ccc2c3c1cccc3c(=O)n1c3ccccc3nc21	110
Cn1sc(=O)n(Cc2ccccc2)c1=O	97.2
CNC(=O)c1cc(Oc2ccc(NC(=O)Nc3ccc(Cl)c(C(F)(F)F)c3)cc2)ccn1	98.1
COc1cc2ncnc(Nc3ccc(Oc4ccccc4)cc3)c2cc1OC	96.4
NCCNc1ncc(C(N)=O)c(Nc2cccc(C(F)(F)F)c2)n1	94.8

Repeated from above (sample 2):
Variant	relative binding score [%]
N85K	36.8
H34C	32.1
L82C	13.8
T86G	0.705
S42W	-7.38
